Measured values collected from several papers.
Parts stem from different laboratories: compare values within a part only.

Series 1 — technique: RNA Bind-n-Seq; form: RNA; matrix: in vitro; tested at: 100 nM; reference: input RNA pool; reading: higher = stronger binding; quantity: bound/input enrichment
Target: RING finger protein unkempt homolog, zinc fingers 1-6, SBP tag (UNK, Homo sapiens, UniProt Q9C0B0, residues 30-357)
Chain of UniProt Q9C0B0 (30-357, looked up): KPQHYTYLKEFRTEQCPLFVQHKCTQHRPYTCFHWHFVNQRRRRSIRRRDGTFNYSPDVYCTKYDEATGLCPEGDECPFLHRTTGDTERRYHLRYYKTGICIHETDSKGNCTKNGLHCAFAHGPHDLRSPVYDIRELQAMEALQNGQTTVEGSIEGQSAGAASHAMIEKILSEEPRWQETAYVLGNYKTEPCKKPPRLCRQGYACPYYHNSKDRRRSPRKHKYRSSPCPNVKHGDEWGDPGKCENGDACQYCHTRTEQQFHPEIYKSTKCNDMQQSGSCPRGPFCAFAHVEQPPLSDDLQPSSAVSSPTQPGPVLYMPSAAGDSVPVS
Setting: RNA with constant flanks, vertebrate orthologous sites, ends assumed
Strand = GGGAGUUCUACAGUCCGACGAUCUAGCGCCAUGGUGGACGGAACCGAGCUCAAGAAGAUCCGGUCCAAUUCACGUGUUUACCAGCGCUACUUCCUCCUCGAUGCCGACAUGCAGUCUUUGCGAUGGGAGCCCUCCAAGAAGGACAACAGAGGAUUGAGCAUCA; value = 0.155 ratio
Strand = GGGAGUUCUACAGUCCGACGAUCCAUUGUACCCUGCUGUAUAAUAAAUAAUCUUAGACAUUUAUCAACUGUUGAUACAAAUGUUAGUCCCUAACCACUUUUUAUAUGUUUUAAAUUUUUGAAAUUCAAGUGUACCUGCCGUAACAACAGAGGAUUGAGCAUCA; value = 1.41 ratio
Strand = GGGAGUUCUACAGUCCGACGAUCAUAAUCACUCUAACUGUAUUCUGAAUAAAGUGUAACAUUGUGUAGCCUUUUUGUAUAAACUAGACAAAUAGAAAUGGUCCAAUUAGUUUCCUUUUUAAUAUGCUUAAAAUAAGCAGGUGGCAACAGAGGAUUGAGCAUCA; value = 2.2 ratio
Strand = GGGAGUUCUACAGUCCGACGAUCUGAGGGAGAGAUUUCUGUGCUUUCUCAUAUUUAAUUUGCUGUUUUUAAGAUAUUCCAACCUAGAGUUUUCGAUGGAACUGAUAUAUUGACAGUUCUCACCGAAGUCCUUUUAUAAAGAAUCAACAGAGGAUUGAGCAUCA; value = 0.834 ratio
Strand = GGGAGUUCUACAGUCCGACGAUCGACCUCCUGAACUUCUAGCUUUCAAGCUGAGGCUGUUUUAGAUACUGGUUUUAUUUUCUUUACCAUUUUCCUGCCUUUCUUCCCCUGUUCCCAAGGUUUGACUCAUGGAUGUUACUCUUCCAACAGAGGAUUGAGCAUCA; value = 0.72 ratio
Strand = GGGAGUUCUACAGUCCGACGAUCAUCCCUCAGUGACAGUAUGCCAUCUGUAGCAGAUUCCCACUCUAGUCAUUUUUCUGAAUUUAGUUGUUCUGACCUAGAAAGCAUGAAAACUUCUUGUAGUCAUGGUUCCAGUGAUUAUCACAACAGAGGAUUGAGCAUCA; value = 3.32 ratio
Strand = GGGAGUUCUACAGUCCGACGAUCUGGGUUACUCCUAUUAUUAUCAAGUAGCUGGAAUUGUGAAGGUCGGAGUAGUUAGAUCUUUAGCUUUUAUUCCUUAUUUUUUUGUAUUACUCUCCAUGUGUAUAAAUUAUUGAUCAUGUUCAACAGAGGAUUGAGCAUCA; value = 4.54 ratio
Strand = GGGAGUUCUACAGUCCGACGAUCCAGUUUGUAUGUACAUUAUUCAUAUUCCUCUCUGUUGUGUUUUGGGGGGAAAAGACAUUUUAGCCUUUUUUAAAAGUUACUGAUUUAAUUUCAUGUUAUUUGGUUGCAUGAGGUUGCCCUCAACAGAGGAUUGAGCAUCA; value = 1.26 ratio
Strand = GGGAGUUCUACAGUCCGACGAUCGGGACGCUUUGAUGUAAAAAUUGAAGUUAAGAGCUGAUCACAAGCACAAAUCUUUCCCACUAGCCAUUUAAUAAGUUAAAAAAAGAUACAAAAACAAAAAACCUACUAGUCUUGAACAAACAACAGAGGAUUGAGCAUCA; value = 3.42 ratio
Strand = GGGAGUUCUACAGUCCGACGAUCCAUUGUACUACAGAAAUUUGUCGCGUUUAUAGACUAGCCGCAGUGAUAACUGCUCUGUGCUAGUAGAAUUCCUCCACUAUUAGCUUUCAAGUUUUUGGUUUUGUCUGCUACUUGAAACCACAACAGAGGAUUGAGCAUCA; value = 0.4 ratio
Strand = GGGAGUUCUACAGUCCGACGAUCAGCACUGCUUGUGCAGCUCCGCAACACUGAACGCAAAGUAGCCAUUUUCACAGUCACAGUAAACGGAGCUUUAGGGUGACAUUACCAUAGUGUUACUCAUGUGCAGGUGUUGAAAAUGUACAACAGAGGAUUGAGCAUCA; value = 0.231 ratio

Series 2 — technique: protein-binding microarray; form: double-stranded DNA, one strand shown; matrix: in vitro; tested at: 940 nM top; setting: 60-bp whole probe; added: salmon DNA 0.4 mg/ml; reference: random background probes; reading: higher = stronger binding; quantity: fitted relative affinity; shared flanks, not repeated: GCCTAGCAC … GTCTTGATTCGCTTGACGCTGCTG
Target: Interferon regulatory factor 5, full length, phosphomimetic (IRF5, Homo sapiens, UniProt Q13568-2, residues 1-514, S451D/S453D/S456D/S462D)
Strand = TCATGTTTTTCATTGTTACTGTGCTAG; value = 1.25 z-score
Strand = CCACTTTTATTTTCAGTATTGTGCTAG; value = 2.22 z-score
Strand = TCATGACTCTGCCTCTAACTGTGCTAG; value = -0.0543 z-score
Strand = GACGGTATCCTTCTGCTGACGTGCTAG; value = 0.467 z-score
Strand = GACGATCTAAGTCTCGAGACGTGCTAG; value = 0.479 z-score
Strand = TTACGTCTCGGACTGGGTTAGTGCTAG; value = 1.4 z-score
Strand = GTAGGTCTCGGTATCGGTTAGTGCTAG; value = 7.04 z-score
Strand = TCATGTTTTTTTCTACTACTGTGCTAG; value = 1.47 z-score
Strand = ATTGCTTCCTCTTTCACTGCGTGCTAG; value = 1.25 z-score
Strand = TTAGGTTTCCTGTTCCTTTAGTGCTAG; value = 1.51 z-score
Strand = GACGGACTGCTAATGCTGACGTGCTAG; value = -0.734 z-score
Strand = GACGATATCAGACCGGAGACGTGCTAG; value = -0.203 z-score
Strand = AGATGCCAAGAGGCATGATGGTGCTAG; value = -0.625 z-score
Strand = TTAGGTTTCGACACTGGGTTGGTGCTA; value = 8.41 z-score
Strand = TGAGGACTGGACTTTCGGTTAGTGCTA; value = 2.42 z-score
Strand = TTAGGTTTCGGTTATCGGTTAGTGCTA; value = 14.9 z-score
Strand = TTAGGACTGGGGTTTCTGTTAGTGCTA; value = 1.66 z-score
Strand = GACGGTCCCGGACTGGGGACGTGCTAG; value = -0.793 z-score
Strand = GTAGATCTCAGTCTCGATTAGTGCTAG; value = 3.07 z-score
Strand = GTCGGACTGCTTTTCCTGACGTGCTAG; value = 0.318 z-score
Strand = GACGGTATCGACACTGGGTACGTGCTA; value = 3.86 z-score
Strand = GGCGGTTCCGGTTTCGGGACGTGCTAG; value = 5.51 z-score
Strand = TCACATTTGGAAAATGAAACTGTGCTA; value = 0.266 z-score

Series 3 — technique: RNA Bind-n-Seq; form: RNA; matrix: in vitro; tested at: 200 nM; setting: whole 134-nt RNA, ends assumed; added: 150 mM LiCl; reference: input library; reading: higher = stronger binding; quantity: log2 enrichment; all molecules: 7-deaza-guanosine replaces G
Target: Fragile X messenger ribonucleoprotein 1, C-terminal low-complexity region (Fmr1, Mus musculus, UniProt P35922)
Strand = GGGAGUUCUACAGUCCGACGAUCGUCCUGUGCUACACAUCGUAUGUACCGAAUCGGGUUUUUUUGGGUUUUUGGGAAAGGGAAAGUAUUAUGUUACGCCGUUCGGAUCUGCACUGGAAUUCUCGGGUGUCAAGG; value = -0.773
Strand = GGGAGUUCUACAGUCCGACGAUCCUCAAGUCCUGUGCUACACAUCGUAUGUACCGAAUCGGUUUGGUGGUUUUUGGAAAGUAUUAUGUUACGCCGUUCGGAUCUGCACUUCCAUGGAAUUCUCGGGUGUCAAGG; value = -0.0559
Strand = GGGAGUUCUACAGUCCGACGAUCCACAGACAACACGUACCCACACAGACACAGAGGGAAGGGGUUGGGAUGGGGACAGGGUGCACAGCAGGGCGGGGUAGGACCCCAGCCCCUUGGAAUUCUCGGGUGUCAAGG; value = 0.0243
Strand = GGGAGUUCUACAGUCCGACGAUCUGGAUUAGAGAGAAAUUGAAUUUUUUCUUACUUGAACUCCUACUAAAAAGUGAACUAAAUAUUUUAUUGUAGUAAUGGCAUAGAGGAGCCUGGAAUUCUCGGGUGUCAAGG; value = -3.02
Strand = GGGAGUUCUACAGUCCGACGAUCUAACUUUAGAGGAGGAUCUGAUGGAUAUCGCAGUGGACGUGGAUUUGGGGAUGGCUAUAAUGGGUAUGGAGGAGGACCUGGAGGUGGCAAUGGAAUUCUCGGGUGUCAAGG; value = 0.308
Strand = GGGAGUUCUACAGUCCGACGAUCUAACUUUAGAGGAGGAUCUGAUGGAUAUGGCAGUGGACGGGGAUUUGGGGAUGGCUAUAAUGGGUAUGGAGGAGGACCUGGAGGUGGCAAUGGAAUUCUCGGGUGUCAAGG; value = -0.214
Strand = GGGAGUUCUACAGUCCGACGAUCGUCCUGUGCUACACAUCGUAUGUACCGAAUCGGGGUUUUGGGUUUUGGGGUUUUGGGGAAAGUAUUAUGUUACGCCGUUCGGAUCUGCACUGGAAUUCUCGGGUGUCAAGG; value = -0.233
Strand = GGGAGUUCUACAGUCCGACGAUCGGCAAGAGGAGGAACGACGUAGAAGAGAGGAAGAGAUGAUGAUUCGUCAACGUGAGAUGGAAGAACAAAUGAGGCGCCAAAGAGAGGAAAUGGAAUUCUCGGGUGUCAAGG; value = 2.06
Strand = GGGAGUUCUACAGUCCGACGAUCCAAGUCCUGUGCUACACAUCGUAUGUACCGAAUCGGGAAAAAGGGUUUGGGUGGGAAAGUAUUAUGUUACGCCGUUCGGAUCUGCACUUCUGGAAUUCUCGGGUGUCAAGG; value = -1.57
Strand = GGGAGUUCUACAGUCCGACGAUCACCAUGCAGGUGGGCAUCUUUGGGAAGUGGGGCAAGGGGGGGAUAGGGAGGGGGGUAACAAAUUGGGAACAGGUGGUCCCAGGUCGUUUCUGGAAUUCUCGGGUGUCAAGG; value = 1.52
Strand = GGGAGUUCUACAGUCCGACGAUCCCUCAAGUCCUGUGCUACACAUCGUAUGUACCGAAUCGGGCCGGGCCGGCCGGAAAGUAUUAUGUUACGCCGUUCGGAUCUGCACUUCCAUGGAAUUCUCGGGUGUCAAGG; value = 0.928

Series 4 — technique: protein binding microarray; form: double-stranded DNA, one strand shown; matrix: in vitro; tested at: not given; reference: not given; reading: higher = stronger binding; quantity: E-score
Target: Histone acetyltransferase KAT6A, winged helix 2, GST fusion (KAT6A, Homo sapiens, UniProt Q92794, residues 85-181)
Setting: 8-mer, flanks averaged, mean of 2 arrays, mostly near background
Residues (chain): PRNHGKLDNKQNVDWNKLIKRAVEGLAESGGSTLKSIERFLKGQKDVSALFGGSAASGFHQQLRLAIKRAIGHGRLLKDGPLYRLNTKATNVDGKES
Strand = CACTTCAC; value = 0.0126
Strand = AGCTTTAA; value = -0.0204
Strand = AGCGTATG; value = -0.202
Strand = AGGTACAA; value = 0.00552
Strand = AGCGGCTG; value = 0.0383
Strand = CAGGTGGG; value = 0.0779
Strand = CAGCCTCC; value = 0.0504
Strand = GATTGTCC; value = 0.0118
Strand = ACAGCTAT; value = -0.0967
Strand = CTCTTTCA; value = 0.028
Strand = AACCCTGG; value = 0.0719
Strand = GACTTACA; value = -0.144
Strand = GCCTAGAA; value = -0.0673
Strand = CGGGAGGC; value = 0.0856
Strand = CACAGATA; value = -0.0559
Strand = ATAGCGCG; value = 0.101
Strand = ATTAGAGA; value = 0.00623
Strand = CTCTTACA; value = -0.0452
Strand = ATGTGCTG; value = 0.0672
Strand = AAGAGCCC; value = 0.109
Strand = CCGACAGA; value = 0.25
Strand = AAAGTCAG; value = -0.0867
Strand = CGATTCAA; value = -0.105
Strand = GATGGTAC; value = -0.13
Strand = TGAATCCA; value = 0.0572

Excerpt of the above (series 4):
Strand = CGGGAGGC; value = 0.0856
Strand = CACAGATA; value = -0.0559
Strand = ATAGCGCG; value = 0.101
Strand = ATTAGAGA; value = 0.00623
Strand = CTCTTACA; value = -0.0452
Strand = ATGTGCTG; value = 0.0672
Strand = AAGAGCCC; value = 0.109
